Assay results from different studies.
Numbered parts are unrelated; each lists some results of a single study. Substitutions count along the parent as printed.

Study 1 — target: CEBPA, bZIP domain (human); method: DHFR protein complementation; medium: yeast; reference: wild-type JUN-FOS pair; reading: higher = stronger binding
Setting: single substitutions, most at no-binding floor
Starting sequence: JUN, bZIP domain (human); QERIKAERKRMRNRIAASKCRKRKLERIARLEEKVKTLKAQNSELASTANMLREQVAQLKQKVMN; partner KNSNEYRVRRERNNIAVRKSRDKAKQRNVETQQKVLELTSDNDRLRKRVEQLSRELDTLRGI
| Substitution | binding fitness [natural log] |
| --- | --- |
| K39G | -1.47 |
| N42P | -1.5 |
| L38D | -1.52 |
| A40N | -1.52 |
| V56A | -1.45 |
| V56G | -1.5 |
| K39V | -1.41 |
| V35T | -1.41 |

Study 2 — target: CCND1, cyclin fold, Cln2 fusion (human); method: yeast growth competition, sequencing; medium: yeast; setting: strong parent motif; reference: not given; reading: higher = stronger binding
Starting sequence: viral docking peptide; KGVKRKLFAEDSS; partner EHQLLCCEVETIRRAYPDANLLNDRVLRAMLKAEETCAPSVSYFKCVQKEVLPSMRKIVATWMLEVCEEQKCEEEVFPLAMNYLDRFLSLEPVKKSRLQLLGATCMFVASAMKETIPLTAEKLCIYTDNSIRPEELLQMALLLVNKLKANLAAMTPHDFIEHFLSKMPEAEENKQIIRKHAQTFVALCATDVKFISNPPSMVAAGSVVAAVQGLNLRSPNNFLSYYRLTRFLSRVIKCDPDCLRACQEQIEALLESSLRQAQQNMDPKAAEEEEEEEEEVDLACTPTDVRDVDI
| Substitution | normalised enrichment score |
| --- | --- |
| KGVFRKLFAEDSS [K4F] | 0.343 |
| KGVWRKLFAEDSS [K4W] | 0.226 |
| KGVKFKLFAEDSS [R5F] | 0.234 |
| KGQKRKLFAEDSS [V3Q] | 0.194 |
| KGVKLKLFAEDSS [R5L] | 0.0806 |
| KPVKRKLFAEDSS [G2P] | 2.63 |
| KGVKRKLFREDSS [A9R] | 0.786 |
| KGVKRDLFAEDSS [K6D] | -0.398 |
| KGVKVKLFAEDSS [R5V] | 0.799 |
| KGVKRKLFAHDSS [E10H] | 0.0684 |
| KGVKRKLCAEDSS [F8C] | 0.165 |
| KLVKRKLFAEDSS [G2L] | 0.838 |
| KGVKRKLFDEDSS [A9D] | 2.12 |

Study 3 — target: inorganic phosphate, free oxyanion; method: microfluidic competitive inhibition; medium: in vitro, cell-free expressed; tested at: not given; reading: lower = stronger binding
Setting: derived from inhibition constants, unchanged parent 615000 nM
Starting sequence: PafA, mature enzyme, eGFP fusion (Elizabethkingia meningoseptica, UniProt Q9KJX5); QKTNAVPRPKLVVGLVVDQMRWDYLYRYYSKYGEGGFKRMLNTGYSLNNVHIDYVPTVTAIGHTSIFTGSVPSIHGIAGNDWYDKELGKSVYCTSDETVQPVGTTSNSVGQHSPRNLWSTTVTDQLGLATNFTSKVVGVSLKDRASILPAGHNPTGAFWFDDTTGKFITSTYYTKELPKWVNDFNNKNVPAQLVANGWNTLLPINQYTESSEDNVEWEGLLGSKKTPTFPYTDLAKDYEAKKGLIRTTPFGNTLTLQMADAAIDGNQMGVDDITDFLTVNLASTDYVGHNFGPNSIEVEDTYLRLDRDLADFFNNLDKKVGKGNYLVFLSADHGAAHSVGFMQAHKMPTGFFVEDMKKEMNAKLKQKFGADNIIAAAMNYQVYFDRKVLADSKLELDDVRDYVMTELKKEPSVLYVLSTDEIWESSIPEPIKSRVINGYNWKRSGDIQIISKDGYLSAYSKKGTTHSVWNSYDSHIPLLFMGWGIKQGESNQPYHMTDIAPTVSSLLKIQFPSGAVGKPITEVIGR
| Substitution | phosphate dissociation constant |
| --- | --- |
| L201V | 627 µM |
| G219A | 553 µM |
| G488A | 517 µM |
| L141V | 722 µM |
| C93V | 470 µM |
| R526V | 641 µM |
| S70V | 474 µM |
| G340A | 516 µM |
| M496V | 516 µM |
| D311V | 602 µM |
| L277V | 620 µM |
| W217V | 224 µM |
| N188V | 627 µM |
| I447V | 615 µM |
| K10G | 532 µM |
| K2V | 709 µM |
| A362V | 689 µM |
| V109A | 695 µM |
| K38G | 460 µM |
| D143V | > 5140 µM |
| T94G | < 589 µM |
| L389G | 593 µM |
| K31V | 545 µM |
| T200G | 487 µM |
| P203G | 503 µM |

Study 4 — read-out: binding; method: phage display NGS; molecule type: peptide; reference: input library
Target: UDP-N-acetylglucosamine--peptide N-acetylglucosaminyltransferase 110 kDa subunit (OGT, Homo sapiens, UniProt O15294)
Construct (O15294 1-1046): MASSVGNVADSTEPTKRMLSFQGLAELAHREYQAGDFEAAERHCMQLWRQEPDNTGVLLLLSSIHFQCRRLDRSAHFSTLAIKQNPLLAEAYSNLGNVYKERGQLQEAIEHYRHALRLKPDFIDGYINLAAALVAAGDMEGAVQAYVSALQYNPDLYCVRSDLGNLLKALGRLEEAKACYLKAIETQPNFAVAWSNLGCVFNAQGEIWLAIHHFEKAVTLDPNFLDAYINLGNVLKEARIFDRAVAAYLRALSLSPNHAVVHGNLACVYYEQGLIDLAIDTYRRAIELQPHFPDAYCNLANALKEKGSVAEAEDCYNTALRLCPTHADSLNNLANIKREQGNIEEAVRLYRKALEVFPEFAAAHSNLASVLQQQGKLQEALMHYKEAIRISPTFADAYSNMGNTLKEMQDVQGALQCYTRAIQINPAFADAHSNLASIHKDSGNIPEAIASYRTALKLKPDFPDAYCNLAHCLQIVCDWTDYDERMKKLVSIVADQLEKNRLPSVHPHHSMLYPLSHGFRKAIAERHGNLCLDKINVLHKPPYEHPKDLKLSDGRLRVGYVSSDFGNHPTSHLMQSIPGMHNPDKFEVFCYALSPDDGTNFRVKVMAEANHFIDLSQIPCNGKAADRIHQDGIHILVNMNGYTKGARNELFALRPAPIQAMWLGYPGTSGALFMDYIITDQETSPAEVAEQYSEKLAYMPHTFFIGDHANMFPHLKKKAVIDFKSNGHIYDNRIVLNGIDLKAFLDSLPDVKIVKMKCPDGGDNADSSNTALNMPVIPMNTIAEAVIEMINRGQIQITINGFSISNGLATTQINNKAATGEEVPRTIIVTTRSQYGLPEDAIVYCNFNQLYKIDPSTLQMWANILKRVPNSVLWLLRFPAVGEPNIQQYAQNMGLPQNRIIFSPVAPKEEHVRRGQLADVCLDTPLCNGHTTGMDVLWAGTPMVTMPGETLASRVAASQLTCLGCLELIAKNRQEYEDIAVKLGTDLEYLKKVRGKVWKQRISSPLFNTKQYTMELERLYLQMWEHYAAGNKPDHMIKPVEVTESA
| Sequence | minimum log2 enrichment ratio |
| --- | --- |
| NAKFFPKYQIGMTP | 1.98 |
| HVMHYHYQHGYTQP | 2.59 |
| DPQQYLPQYQIFLPI | 5.01 |
| TQGMHPQRPHHVGY | 2.14 |
| AHQNRYMPFYKIEFF | 3.19 |
| ATRYDMHHPHLHPSN | 1.94 |
| HYTMEHNWAHQEQHH | 2.62 |
| THIMTGHHGPIKGRD | 1.91 |
| HNHHSHASQMPKFDV | 1.6 |
| HKPMLHHRWRDIDNL | 3.2 |
| HTAWQPWINGHDHHH | 3.2 |
| HTRADFHHFHHDVEQ | 2.59 |
| YYHTPRHDQMHVYVR | 2.5 |
| HHPAHRTPMFATTF | 1.03 |
| YTPIQHHISHTHHAE | 2.53 |
| TVQHQRYYMHWKPHH | 2.78 |
| HQAHRTHFPSRTDYV | 2.01 |
| TDYMFTQHHWHKVQH | 3.22 |
| QPEWRPQYQIRITSM | 2.43 |
| GRYSYDPQYTIDYKR | 1.44 |
| HFDHYYNAHEDHVA | 1.82 |
| SFKHYDHTFHYHEGS | 3.08 |
| DYIYGHSHPHIMNHN | 3.26 |
| SLSHHHIQEHGAYQH | 2.54 |
| HRDLHFHTSWNYHRI | 1.86 |

A few entries again (study 3):
| Substitution | phosphate dissociation constant |
| --- | --- |
| N188V | 627 µM |
| G340A | 516 µM |
| P203G | 503 µM |
| K38G | 460 µM |
| G219A | 553 µM |
| T94G | < 589 µM |
| D311V | 602 µM |
| L277V | 620 µM |
| L201V | 627 µM |
